Measured values pooled from the literature.
Each line is one published result; not all experiments were run side by side. “And” joins repeats or separate records; there may be more than shown. Numbers after ± are the reported error.
rep main protease: Replicase polyprotein 1ab, main protease (rep, Severe acute respiratory syndrome coronavirus 2, UniProt P0DTD1)

O=C(CSc1nc2c(c(=O)[nH]1)CCCC2)NNC(=O)c1ccccc1  IC50 (SARS-CoV-2; viral cytopathic effect; Vero E6, NRC-03-nhCoV): 140 µM
Cn1cnc(Cn2c(=O)[nH]/c(=N\c3cc4cn(C)nc4cc3Cl)n(Cc3cc(F)c(F)cc3F)c2=O)n1  Tmax (human, moderate renal impairment, plasma; oral, 375 mg single dose): 2.5 h
COc1ccc(CN2CCN(Cc3ccccc3)CC2)cc1  IC50 (SARS-CoV-2; viral replication, RT-qPCR; A549 expressing ACE2): > 10 µM
CCOc1ccc2cc(C(=O)Nc3nc4ccccc4[nH]3)[nH]c2c1  IC50 (SARS-CoV-2; cell fusion; Vero E6): 0.71 µM and < 1 µM
O=C(CSc1nc2ccccc2c(=O)[nH]1)Nc1cccc(C(=O)O)c1  IC50 (SARS-CoV-2; viral cytopathic effect; Vero E6, NRC-03-nhCoV): 79.7 µM
CC(C)(C)NC(=O)N[C@H](C(=O)N1C[C@H]2[C@@H]([C@H]1C(=O)NC(CC1CCC1)C(=O)C(N)=O)C2(C)C)C(C)(C)C (stereo partly shown)  inhibition (rep main protease; reporter gene (Gaussia luciferase), inhibitor; 20 µM): 22.5%
CCC[C@H](NC(=O)[C@@H]1[C@H]2CCC[C@H]2CN1C(=O)[C@@H](NC(=O)[C@@H](NC(=O)c1cnccn1)C1CCCCC1)C(C)(C)C)C(=O)C(=O)NC1CC1  IC50 (SARS-CoV-2; viral replication, nucleoprotein immunofluorescence; Vero E6): > 50 µM
CN1CC[C@@]23CCCC[C@@H]2[C@@H]1Cc1ccc(O)cc13  IC50 (SARS-CoV-2; viral replication, anti-nucleoprotein immunostaining; Vero E6): > 10 µM
OCCOc1ccc(/C(=C(/CCCl)c2ccccc2)c2ccccc2)cc1  IC50 (SARS-CoV-2; viral replication; Huh-7): > 2 µM
CC(C)(C)OC(=O)N[C@H]1CCCCC/C=C\[C@@H]2C[C@@]2(C(=O)NS(=O)(=O)C2CC2)NC(=O)[C@@H]2C[C@@H](OC(=O)N3Cc4cccc(F)c4C3)CN2C1=O  IC50 (SARS-CoV-2; viral replication, nucleoprotein immunofluorescence; Vero E6): > 50 µM
O=C(CN1CCC(CN2Cc3ccccc3C2=O)CC1)c1ccc(F)cc1  IC50 (SARS-CoV-2; viral replication; Vero E6; inactive set pIC50 4): > 10 µM
O=C(CSc1nc2ccccc2c(=O)[nH]1)Nc1ccc(C(=O)O)cc1  IC50 (SARS-CoV-2; viral cytopathic effect; Vero E6, NRC-03-nhCoV): 79.2 µM
Cc1ncc(CO)c(CO)c1O  IC50 (SARS-CoV-2; viral replication; Huh-7): > 2 µM
O=C(Nc1ccc(-c2nc3ccccc3o2)cc1)c1ccc(NC(=O)c2cc3ccccc3o2)cc1  inhibition (rep main protease; viral replication, Gluc reporter; SARS-CoV-2; 20 µM): 1.21%
Oc1c(Cl)cc(Cl)c2cccnc12  IC50 (SARS-CoV-2; viral replication; Huh-7): > 2 µM
NCCCC(N)(C(=O)O)C(F)F (stereo not shown)  IC50 (SARS-CoV-2; viral replication): 230 µM
Cc1ccc(C(=O)NNC(=O)CSc2nc3ccccc3c(=O)[nH]2)cc1  IC50 (SARS-CoV-2; viral cytopathic effect; Vero E6, NRC-03-nhCoV): 127 µM
CCCCCCNC(=O)n1cc(F)c(=O)[nH]c1=O  IC50 (SARS-CoV-2; viral replication; Huh-7): > 2 µM
CCN1CCCC1CNC(=O)c1cc(S(=O)(=O)CC)c(N)cc1OC (stereo not shown)  IC50 (SARS-CoV-2; viral replication; A549 expressing ACE2; inactive set pIC50 4): > 10 µM
COc1cc(-n2c(=S)[nH]c3ccccc3c2=O)c(Cl)cc1Cl  IC50 (SARS-CoV-2; viral cytopathic effect; Vero E6; 3 days): ~0.832 µM
Nc1ncnc2c([C@@H]3N[C@H](CO)[C@@H](O)[C@H]3O)c[nH]c12  inhibition (Chikungunya virus; viral replication; HeLa, AF 15561; 50 µM): 4.7%
CC(C)(C)[C@@H]1NC(=O)O[C@@H]2CCC[C@H]2OC/C=C/C(F)(F)c2nc3ccccc3nc2O[C@@H]2C[C@@H](C(=O)N[C@]3(C(=O)NS(=O)(=O)C4(C)CC4)C[C@H]3C(F)F)N(C2)C1=O  IC50 (SARS-CoV-2; viral replication, nucleoprotein immunofluorescence; Vero E6): > 50 µM
COc1ccc([C@@]23Oc4cc(OC)cc(OC)c4[C@@]24NC(C)=N[C@@]4(O)[C@H](C(=O)N(C)OC)[C@H]3c2ccccc2)cc1  IC50 (SARS-CoV-2; cell-based): 0.005 µM
Cc1nccn1CC1CCc2c(c3ccccc3n2C)C1=O (stereo not shown)  IC50 (SARS-CoV-2; viral replication; A549 expressing ACE2; inactive set pIC50 4): > 10 µM
Cc1cccc(Nc2nc(Nc3cccc(C)c3)nc(N3CCOCC3)n2)c1  IC50 (SARS-CoV-2; viral replication; Vero C1008, USA_WA1/2020; 72 h): 0.8 µM
COc1cc2nc(N(C)CCCNC(=O)C3CCCO3)nc(N)c2cc1OC (stereo not shown)  IC50 (SARS-CoV-2; viral replication; Huh-7): > 2 µM
polymyxin B  IC50 (SARS-CoV-2; viral replication; Vero; 24 h): > 0.8 µg/mL
O=C(CSc1nc2c(c(=O)[nH]1)CCCC2)Nc1ccc(C(=O)O)cc1  IC50 (SARS-CoV-2; viral cytopathic effect; Vero E6, NRC-03-nhCoV): 530 µM
Cc1c(CN2CCC(Nc3ncnc4sc(CC(F)(F)F)cc34)CC2)ccc2c1cc(C#N)n2Cc1cn[nH]c1  IC50 (SARS-CoV-2; viral replication; Huh-7): > 2 µM
Cc1c(-c2ccccc2)oc2c(C(=O)OCCN3CCCCC3)cccc2c1=O  IC50 (SARS-CoV-2; viral replication, RT-qPCR; A549 expressing ACE2): > 10 µM
CCOCOC[C@H](C[C@H](C)C(=O)NO)NC(=O)c1ccc(Oc2ccccc2)cc1  IC50 (SARS-CoV-2; cell-cell fusion; HeLa-ACE2, Delta spike): > 10 µM
O=C(Nc1ccc(OC(F)(F)F)cc1)c1sccc1NCc1ccnc2ccccc12  IC50 (SARS-CoV-2; viral replication): 2.4 µM
O=C(CSc1nc2ccccc2c(=O)[nH]1)NNC(=O)c1ccc([N+](=O)[O-])cc1  IC50 (SARS-CoV-2; viral cytopathic effect; Vero E6, NRC-03-nhCoV): 121 µM
CC[C@H](C)[C@H](NC(=O)[C@H](CC(C)C)NC(=O)[C@H](Cc1c[nH]c2ccccc12)NC(=O)[C@H](CCC(N)=O)NC(=O)[C@@H](NC(=O)[C@H](Cc1ccccc1)NC(=O)[C@H](C)NC(=O)[C@H](CCCCNC(=O)COCCOCCNC(=O)COCCOCCNC(=O)CC[C@H](NC(=O)CCCCCCCCCCCCCCCCCCC(=O)O)C(=O)O)NC(=O)[C@H](CCC(N)=O)NC(=O)[C@H](C)NC(=O)[C@@H](NC(=O)[C@H](CCCCN)NC(=O)[C@H](CC(=O)O)NC(=O)[C@H](CC(C)C)NC(=O)C(C)(C)NC(=O)[C@@H](NC(=O)[C@H](CO)NC(=O)[C@H](Cc1ccc(O)cc1)NC(=O)[C@H](CC(=O)O)NC(=O)[C@H](CO)NC(=O)[C@@H](NC(=O)[C@H](Cc1ccccc1)NC(=O)[C@@H](NC(=O)CNC(=O)[C@H](CCC(=O)O)NC(=O)C(C)(C)NC(=O)[C@@H](N)Cc1ccc(O)cc1)[C@@H](C)O)[C@@H](C)O)[C@@H](C)CC)[C@@H](C)CC)C(C)C)C(=O)N[C@@H](C)C(=O)NCC(=O)NCC(=O)N1CCC[C@H]1C(=O)N[C@@H](CO)C(=O)N[C@@H](CO)C(=O)NCC(=O)N[C@@H](C)C(=O)N1CCC[C@H]1C(=O)N1CCC[C@H]1C(=O)N1CCC[C@H]1C(=O)N[C@@H](CO)C(N)=O  serum ALT (patients with type 2 diabetes, serum; 0.5 mg, day 29, proof of concept): 28.7 ± 14.1 U/L
O=C(CSc1nc2c(c(=O)[nH]1)CCCC2)NNC(=O)c1ccccc1Cl  IC50 (SARS-CoV-2; viral cytopathic effect; Vero E6, NRC-03-nhCoV): 460 µM
O=C(c1cncc2[nH]cnc12)N1CC[C@]2(CCCCN(C(=O)[C@H]3C[C@@H]4C=CC[C@@H](C4)C3)C2)C1  inhibition (rep main protease; enzyme activity, inhibitor; 5 µM, run 2): 11.4%
O=C(OC[C@H]1OC(OC(=O)c2cc(O)c(O)c(O)c2)[C@H](OC(=O)c2cc(O)c(O)c(O)c2)[C@@H](OC(=O)c2cc(O)c(O)c(O)c2)[C@@H]1OC(=O)c1cc(O)c(O)c(O)c1)c1cc(O)c(O)c(O)c1 (stereo partly shown)  Kd (Spike glycoprotein (Severe acute respiratory syndrome coronavirus 2, UniProt P0DTC2); binding, biolayer interferometry): 6.69 µM
Cc1nccn1CC1CCc2c(c3ccccc3n2C)C1=O (stereo not shown)  IC50 (SARS-CoV-2; viral replication; Huh-7): > 2 µM
ginsenoside Rb1  IC50 (SARS-CoV-2; viral cytopathic effect; Vero E6 cells; 3 days): ~1.4 µM
CN(C)CC[C@@H](c1ccc(Cl)cc1)c1ccccn1  IC50 (SARS-CoV-2; viral replication; A549 expressing ACE2; inactive set pIC50 4): > 10 µM
O=C(CSc1nc2c(c(=O)[nH]1)CCCC2)NNC(=O)c1ccccc1Br  IC50 (SARS-CoV-2; viral cytopathic effect; Vero E6, NRC-03-nhCoV): 93.4 µM
Cc1cn2nc([C@@H]3CCCCN3C(=O)c3cc(Cl)ccc3NS(C)(=O)=O)cc2nc1N1CC[C@H](N)C1  IC50 (SARS-CoV-2; viral replication; Vero E6): 7.7 µM
Cn1cnc(Cn2c(=O)[nH]/c(=N\c3cc4cn(C)nc4cc3Cl)n(Cc3cc(F)c(F)cc3F)c2=O)n1  IC50 (SARS-CoV-2; viral replication; Vero C1008, XBB.1): 0.0949 ± 0.0094 µM
C[C@]12CCC3=C4CCC(=O)C=C4CC[C@H]3[C@@H]1CC[C@@]2(O)CC#N  IC50 (SARS-CoV-2; viral replication; Huh-7): > 2 µM
CN(C)CCCN1c2ccccc2Sc2ccc(Cl)cc21  IC50 (SARS-CoV-2; viral replication, anti-nucleoprotein immunostaining; Vero E6): > 10 µM
CCC(CC)COC(=O)[C@H](C)N[P@](=O)(OC[C@H]1O[C@@](C#N)(c2ccc3c(N)ncnn23)[C@H](O)[C@@H]1O)Oc1ccccc1  IC50 (SARS-CoV-2; cytopathic effect; Vero C1008): 7.39 µM

For quick reference, copied from above:
O=C(CSc1nc2c(c(=O)[nH]1)CCCC2)Nc1ccc(C(=O)O)cc1  IC50 (SARS-CoV-2; viral cytopathic effect; Vero E6, NRC-03-nhCoV): 530 µM
Cc1c(CN2CCC(Nc3ncnc4sc(CC(F)(F)F)cc34)CC2)ccc2c1cc(C#N)n2Cc1cn[nH]c1  IC50 (SARS-CoV-2; viral replication; Huh-7): > 2 µM
Cc1c(-c2ccccc2)oc2c(C(=O)OCCN3CCCCC3)cccc2c1=O  IC50 (SARS-CoV-2; viral replication, RT-qPCR; A549 expressing ACE2): > 10 µM
CCOCOC[C@H](C[C@H](C)C(=O)NO)NC(=O)c1ccc(Oc2ccccc2)cc1  IC50 (SARS-CoV-2; cell-cell fusion; HeLa-ACE2, Delta spike): > 10 µM
O=C(Nc1ccc(OC(F)(F)F)cc1)c1sccc1NCc1ccnc2ccccc12  IC50 (SARS-CoV-2; viral replication): 2.4 µM
O=C(CSc1nc2ccccc2c(=O)[nH]1)NNC(=O)c1ccc([N+](=O)[O-])cc1  IC50 (SARS-CoV-2; viral cytopathic effect; Vero E6, NRC-03-nhCoV): 121 µM
CC[C@H](C)[C@H](NC(=O)[C@H](CC(C)C)NC(=O)[C@H](Cc1c[nH]c2ccccc12)NC(=O)[C@H](CCC(N)=O)NC(=O)[C@@H](NC(=O)[C@H](Cc1ccccc1)NC(=O)[C@H](C)NC(=O)[C@H](CCCCNC(=O)COCCOCCNC(=O)COCCOCCNC(=O)CC[C@H](NC(=O)CCCCCCCCCCCCCCCCCCC(=O)O)C(=O)O)NC(=O)[C@H](CCC(N)=O)NC(=O)[C@H](C)NC(=O)[C@@H](NC(=O)[C@H](CCCCN)NC(=O)[C@H](CC(=O)O)NC(=O)[C@H](CC(C)C)NC(=O)C(C)(C)NC(=O)[C@@H](NC(=O)[C@H](CO)NC(=O)[C@H](Cc1ccc(O)cc1)NC(=O)[C@H](CC(=O)O)NC(=O)[C@H](CO)NC(=O)[C@@H](NC(=O)[C@H](Cc1ccccc1)NC(=O)[C@@H](NC(=O)CNC(=O)[C@H](CCC(=O)O)NC(=O)C(C)(C)NC(=O)[C@@H](N)Cc1ccc(O)cc1)[C@@H](C)O)[C@@H](C)O)[C@@H](C)CC)[C@@H](C)CC)C(C)C)C(=O)N[C@@H](C)C(=O)NCC(=O)NCC(=O)N1CCC[C@H]1C(=O)N[C@@H](CO)C(=O)N[C@@H](CO)C(=O)NCC(=O)N[C@@H](C)C(=O)N1CCC[C@H]1C(=O)N1CCC[C@H]1C(=O)N1CCC[C@H]1C(=O)N[C@@H](CO)C(N)=O  serum ALT (patients with type 2 diabetes, serum; 0.5 mg, day 29, proof of concept): 28.7 ± 14.1 U/L
